# Experimental data of several laboratories.
# A part holds a random share of what one study measured. Positions count from the first letter of the parent shown.

# Block 1 — target: CCNB1, cyclin fold, Cln2 fusion (human); method: yeast growth competition, sequencing; matrix: yeast; setting: weak parent motif; relative to: not given; direction: higher = stronger binding
# Parent: SLBP docking peptide (human); ARYKRKLLINDFG
Change,normalised enrichment score
ARYKSKLLINDFG [R5S],0.998
ARYKRKLCINDFG [L8C],0.368
ARKKRKLLINDFG [Y3K],0.198
GRYKRKLLINDFG [A1G],0.329
ARYKRMLLINDFG [K6M],-0.368
ARYKRKLLQNDFG [I9Q],0.139
ARYCRKLLINDFG [K4C],0.258
ARYKRKLLIVDFG [N10V],0.393
ARHKRKLLINDFG [Y3H],0.939
ARYGRKLLINDFG [K4G],0.666
AYYKRKLLINDFG [R2Y],1.52
AVYKRKLLINDFG [R2V],0.842
ARNKRKLLINDFG [Y3N],0.907
ARYKYKLLINDFG [R5Y],-0.138

# Block 2 — target: DBP, bZIP domain (human); method: DHFR protein complementation; matrix: yeast; relative to: wild-type JUN-FOS pair; direction: higher = stronger binding
# Setting: single substitutions, most at no-binding floor
# Parent: JUN, bZIP domain (human); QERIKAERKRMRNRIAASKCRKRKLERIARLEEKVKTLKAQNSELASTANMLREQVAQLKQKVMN; partner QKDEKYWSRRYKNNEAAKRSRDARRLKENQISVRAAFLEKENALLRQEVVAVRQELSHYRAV
Change,binding fitness
N42R,-1.48 natural log
A29L,-1.38 natural log
M51C,-1.57 natural log
K39Q,-1.45 natural log
K36S,-1.44 natural log
A49N,-1.55 natural log
Q55E,-1.58 natural log
E32G,-1.39 natural log
E44H,-1.46 natural log
E33W,-1.5 natural log
A29G,-1.44 natural log

# Block 3 — method: DHFR PCA, deep sequencing; matrix: yeast; with: (+)-ABA 0.11 µM; relative to: wild-type fitted maximum; direction: higher = stronger binding
# Target: ABI1, truncated, D143A, DHFR fusion (Arabidopsis thaliana)
# Setting: methotrexate growth selection, single substitutions
# Parent: PYL1, truncated, DHFR fusion (Arabidopsis thaliana); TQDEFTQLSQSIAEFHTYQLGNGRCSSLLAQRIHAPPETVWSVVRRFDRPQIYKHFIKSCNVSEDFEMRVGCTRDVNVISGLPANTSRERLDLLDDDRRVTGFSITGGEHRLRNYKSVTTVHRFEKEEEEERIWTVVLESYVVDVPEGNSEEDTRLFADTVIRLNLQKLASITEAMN; partner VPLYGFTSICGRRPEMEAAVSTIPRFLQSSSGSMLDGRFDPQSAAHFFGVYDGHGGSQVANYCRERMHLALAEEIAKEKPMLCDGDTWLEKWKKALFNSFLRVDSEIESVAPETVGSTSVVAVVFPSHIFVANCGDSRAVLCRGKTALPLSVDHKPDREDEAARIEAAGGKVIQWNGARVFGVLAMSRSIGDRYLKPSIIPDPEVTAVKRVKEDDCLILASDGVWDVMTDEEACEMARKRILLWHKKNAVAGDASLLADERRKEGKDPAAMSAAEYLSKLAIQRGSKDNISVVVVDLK
Change,relative binding score [%]
F124D,14.3
N61P,3.27
L91N,-5.1
R24I,5.66
S171M,42.9
R98E,-4.33
T86R,15.2
P50M,2.37
R155V,5.53
L166V,2.11
Q19N,35.3
E129W,7.03
G108E,-1.49
G107C,2.01
V145N,-7.3

# Further values, each from its own experiment
Substance,target,assay,system,setting,how to read,quantity,result
"PhoQ, residues 284 288 289 292 302 303 ALVSVA","PhoP, residues 12 14 15 18 19 LHSVQ (Escherichia coli, UniProt P23836)","Sort-seq, item: YFP reporter",E. coli,"PhoQ-PhoP variant library, with: 10 µM Mg2+","relative to: high Mg2+ state, higher = stronger signaling",fold induction,1.29

# For quick reference, copied from above (block 3):
Change,relative binding score [%]
P50M,2.37
R155V,5.53
L166V,2.11
Q19N,35.3
E129W,7.03
G108E,-1.49
G107C,2.01
